# Measurements of several laboratories.
# Compare with care: the assays were run in different laboratories. ± marks the error that the study gave.
# Target: Cytochrome P450 1A2 (CYP1A2, Homo sapiens, UniProt P05177)
# UniProt P05177, sequence (whole entry, looked up): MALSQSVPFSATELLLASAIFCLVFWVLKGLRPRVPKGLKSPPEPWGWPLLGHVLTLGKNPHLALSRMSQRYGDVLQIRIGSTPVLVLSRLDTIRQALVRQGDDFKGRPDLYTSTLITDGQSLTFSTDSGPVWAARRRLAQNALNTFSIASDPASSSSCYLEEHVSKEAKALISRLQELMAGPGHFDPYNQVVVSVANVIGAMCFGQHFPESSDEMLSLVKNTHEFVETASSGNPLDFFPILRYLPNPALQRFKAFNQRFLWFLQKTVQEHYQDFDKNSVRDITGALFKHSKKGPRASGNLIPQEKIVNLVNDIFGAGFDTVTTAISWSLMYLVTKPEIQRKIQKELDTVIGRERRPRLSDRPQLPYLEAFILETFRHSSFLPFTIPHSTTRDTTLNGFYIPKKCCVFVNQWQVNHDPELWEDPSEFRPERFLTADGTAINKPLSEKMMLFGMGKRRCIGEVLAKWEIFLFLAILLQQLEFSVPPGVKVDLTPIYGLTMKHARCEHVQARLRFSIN
SMILES,assay,test system,conditions,quantity,value
Cn1c(=O)c2c(ncn2C)n(C)c1=O,refers to: paraxanthine,"human, plasma","oral, 50 mg caffeine, day 1, cocktail with binimetinib and encorafenib",AUC(0-t),6480 ng·h/mL
O=c1c(O)c(-c2ccccc2)oc2ccccc12,"LC-MS/MS, refers to: acetaminophen",human liver microsomes,"10 µM, 30 min, pH 7.4, together with: 50 µM phenacetin",remaining activity,11.5 ± 0.23%
Nc1ccc2c(c1)CN1C(=O)c3ccccc3C1=N2,substrate,recombinant human CYP1A2 microsomes,"10 µM, 120 min, together with: NADPH",metabolised fraction,8.4%
O=c1c(O)c(-c2ccccc2)oc2ccc(O)cc12,"LC-MS/MS, refers to: acetaminophen",human liver microsomes,"10 µM, 30 min, pH 7.4, together with: 50 µM phenacetin",remaining activity,7.62 ± 0.26%
Cc1ccc2c(c1)C(=O)[C@]1(O)CCN(c3ccc4nc(C)ccc4c3)C1=N2.Cl,metabolic stability,recombinant CYP isoform,,half-life,39.8 min
COc1ccc2oc(-c3ccccc3)c(O)c(=O)c2c1,"LC-MS/MS, refers to: acetaminophen",human liver microsomes,"10 µM, 30 min, pH 7.4, together with: 50 µM phenacetin",remaining activity,17.33 ± 0.17%
Cn1c(=O)c2c(ncn2C)n(C)c1=O,,"human, plasma","oral, 200 mg, day 1, alone, geometric mean",half-life,280 min
O=c1cc(-c2ccccc2)oc2ccc(O)cc12,"LC-MS/MS, refers to: acetaminophen",human liver microsomes,"10 µM, 30 min, pH 7.4, together with: 50 µM phenacetin",remaining activity,24.5 ± 0.41%
CC(C)=CCc1c(O)cc(O)c2c1O[C@H](c1ccc(O)cc1)CC2=O,"enzyme activity, inhibitor",,"10 µM, pH 7.4",inhibition,88.4 ± 1.6%
N#C[C@H](C[C@@H]1CCCNC1=O)NC(=O)[C@H](CC1CC1)NC(=O)c1cc2cccc(Cl)c2[nH]1,NADPH metabolic stability,,"2 µM, pH 7.4, 100 pmol/mL enzyme",intrinsic clearance,< 0.054 µL/min/pmol
CC(C)=CCc1c(O)cc2c(c1O)C(=O)C[C@@H](c1ccc(O)cc1)O2,,,"1 µM, pH 7.4",inhibition,< 10%
C[C@@H](c1ccc2nccn2c1)n1nnc2ncc(-c3cnn(C)c3)nc21,inhibitor,pooled human liver microsomes,reversible inhibition,IC50,> 100 µM
COc1cc(O)c(CC=C(C)C)c(O)c1C(=O)/C=C/c1ccc(O)cc1,"enzyme activity, inhibitor",human liver microsomes,"1 µM, pH 7.4, together with: phenacetin",inhibition,< 10%
C[C@H]1CN(C2COC2)CCN1c1ccc(Nc2cc(-c3ccnc(N4CCn5c(cc6c5CC(C)(C)C6)C4=O)c3CO)cn(C)c2=O)nc1,substrate,recombinant enzyme,"1 µM, 60 min",remaining compound,97.2 ± 12.2%
COc1cc(O)c(CC=C(C)C)c2c1C(=O)CC(c1ccc(O)cc1)O2 (stereo not shown),"enzyme activity, inhibitor",human liver microsomes,"10 µM, pH 7.4, together with: phenacetin",inhibition,48.2 ± 4.6%
C=CC(=O)Nc1cc(Nc2nccc(-c3cn(C)c4ccccc34)n2)c(OCC(F)(F)F)nc1N(C)CCNC,substrate depletion,recombinant human CYP,1 µM,intrinsic clearance,0.56 µL/min/pmol

# Repeated from above:
SMILES,assay,test system,conditions,quantity,value
O=c1cc(-c2ccccc2)oc2ccc(O)cc12,"LC-MS/MS, refers to: acetaminophen",human liver microsomes,"10 µM, 30 min, pH 7.4, together with: 50 µM phenacetin",remaining activity,24.5 ± 0.41%
CC(C)=CCc1c(O)cc(O)c2c1O[C@H](c1ccc(O)cc1)CC2=O,"enzyme activity, inhibitor",,"10 µM, pH 7.4",inhibition,88.4 ± 1.6%
